Experimental data gathered from unrelated publications.
± gives the spread as reported.
Method: steady-state kinetics
B1: protein (Cecembia lonarensis, UniProt K1KV82); chain QENKEKDRTPSSKHLTDNILQPKRSSDFMAFKYEYSTVDLYREFSESIMDKARSEVEILESVNRQGRYKPNVESLKLHEVPEWFEDAKLGIFLDWGPWSVPGYAPLKGAEASTGGSYPDWYEFLMDNLYKEYHDEVWGADFRRDDFLPLLTGENFNSEEYMLLAVNSGAKYFVPFTKHHAGWTMWESEFTKRNAVEMGPGRDIYKELIEAGKKYDMKMGFYFSVSEWEYPVIVDQNLSQWDPVKNLAIFQDALGQIPRATPLASYFPALHDRMISGKIPVKDYFADYMIPSFKEAVDKYDPDLVWYDGGWGSPVSISRTMETSAYFYNQAEGKKDVVINNRAGSSLSEDDLIKVRDLMDSGKRDEAMKIYLSGQQLGDYGTPEFTIGDVDIQSKWEVCRSISPAFGYNWQDDEASSLSGEELIKLFVDIVANNGNLLLVISPDGSGKLPDIQKDRLLELGDWMKVNAESIHNTRPWKVQKENDKFFTKSKDGKSLFVHCTNWPGENLIINTPIEEGIKGIKLLGSDINLQFTKASNGNLEIPIPKDFQNNPSLISKYVWTFKIDLN
B2: protein P94L (Streptomyces coelicolor, UniProt P16544); chain MATQDSEVALVTGATSGIGLEIARRLGKEGLRVFVCARGEEGLRTTLKELREAGVEADGRTCDVRSVPEIEALVAAVVERYGPVDVLVNNAGRLGGGATAELADELWLDVVETNLTGVFRVTKQVLKAGGMLERGTGRIVNIASTGGKQGVVHAAPYSASKHGVVGFTKALGLELARTGITVNAVCPGFVETPMAASVREHYSDIWEVSTEEAFDRITARVPIGRYVQPSEVAEMVAYLIGPGAAAVTAQALNVCGGLGNY
B3: protein (Irpex lacteus, UniProt A0A510I1H7); chain QSQVWGQCGGIGWTGATTCVAGSVCTKSNDYYSQCIPGAAAPSSAPPASTPVSVPPSQPSGSSGGLANIPASKLTQFSNFGTNPNNVQMFVYKPKNVAANPPLIVASHYCSGTAQAYFTGSKFAQLAETYGYVVIFPSSPHSGTCWDVSSDETLMHDGGSDSLSIANAARFAISNWGVDPNRVFAVGTSSGAMMTSVLAGAYPDIFKAGIVDSGVAFGCFAVPGQPEDSWNSQCSEGQLVLTGQQWAQKVKNAFPGFTGTYPKMQVWHGTADTTLYPQNFFEEVKQWTTIFNYPSTPLSNVTQTNLGSNYHNATFGPNFQAILATGVGHTVPLFEQQYLQFLGIA
B4: BaiA2 (Clostridium scindens, UniProt P19337); chain MNLVQDKVTIITGGTRGIGFAAAKIFIDNGAKVSIFGETQEEVDTALAQLKELYPEEEVLGFAPDLTSRDAVMAAVGQVAQKYGRLDVMINNAGITSNNVFSRVSEEEFKHIMDINVTGVFNGAWCAYQCMKDAKKGVIINTASVTGIFGSLSGVGYPASKASVIGLTHGLGREIIRKNIRVVGVAPGVVNTDMTNGNPPEIMEGYLKALPMKRMLEPEEIANVYLFLASDLASGITATTVSVDGAYRP
B5: protein (Streptomyces coelicolor, UniProt Q9K464); chain MAAYLCAPAVIHGEHSVETREIVEEVRGRHPHAPWAPRIDGIAASTGIESRGWMLPLEAAVAPGGGGDLGAAREALVRDGFTEQDANRAIAALKAVPASQTVQERTAPAWEAVQAYGERAARGALQIAGLDVADVDCLITSNSTTPALPGLDVALANRLPLRGDTMLLPATQWACVAGTRSLALAADLVAADPDRVVLVVISEALSTTYQPADDTLESLIVRLLFADTAVAAVVTGRPRPESVLRLDAAWHHTLPGTRDLHRLETRADGTHFVMDRRGPRAVQETVTAMWEWLRVRYEDDPSSWHPDVLLAHPGGTRVLEYMEQTMPDEWPSGLLSYSRDSYTSGNRGGAAVFDILRRAHDAGQKTGSRAVLYAAAPGLTATALEGEWL
B6: MMP2 (Homo sapiens, UniProt P08253); chain YNFFPRKPKWDKNQITYRIIGYTPDLDPETVDDAFARAFQVWSDVTPLRFSRIHDGEADIMINFGRWEHGDGYPFDGKDGLLAHAFAPGTGVGGDSHFDDDELWTLGEGQVVRVKYGNADGEYCKFPFLFNGKEYNSCTDTGRSDGFLWCSTTYNFEKDGKYGFCPHEALFTMGGNAEGQPCKFPFRFQGTSYDSCTTEGRTDGYRWCGTTEDYDRDKKYGFCPETAMSTVGGNSEGAPCVFPFTFLGNKYESCTSAGRSDGKMWCATTANYDDDRKWGFCPDQGYSLFLVAAHEFGHAMGLEHSQDPGALMAPIYTYTKNFRLSQDDIKGIQELYGASPDIDLGTGPTPTLGPVTPEICKQDIVFDGIAQIRGEIFFFKDRFIWRTVTPRDKPMGPLLVATFWPELPEKIDAVYEAPQEEKAVFFAGNEYWIYSASTLERGYPKPLTSLGLPPDVQRVDAAFNWSKNKKTYIFAGDKFWRYNEVKKKMDPGFPKLIADAWNAIPDNLDAVVDLQGGGHSYFFKGAYYLKLENQSLKSVKFGSIKSDWLGC
B7: protein (Sinorhizobium meliloti, UniProt Q92T34); chain MPAKSPVIVDLKFIPEEVEAALAGAFPGREVIDLADPAHQERDLSGIDYAVVWKSAPDLFSRAPDLKVVFSGGAGVDHVLTLPGLPDVPLVRFVDRTLTTRMSEWVMMQCLLHLRQHRAYEALAKKHEWRDLSQPEAADVTVGIMGMGVLGQDAARKLAAMGFKVIGWSRSKRVIEGVETYDAAGLDAFLGRTDFLVGLLPLTPDTRGIFNAALFAKLSRNGPFGAPVFINAGRGGSQVEADILECLDSGVLGGASLDVFEREPLSPESRFWDMPNVYVTPHVAASSDVRALFVHVEHQIARFESGLPLEHVVDKVAGY
B8: mtnK (Bacillus subtilis, UniProt O31663); chain MGVTKTPLYETLNESSAVALAVKLGLFPSKSTLTCQEIGDGNLNYVFHIYDQEHDRALIIKQAVPYAKVVGESWPLTIDRARIESSALIRQGEHVPHLVPRVFYSDTEMAVTVMEDLSHLKIARKGLIEGENYPHLSQHIGEFLGKTLFYSSDYALEPKVKKQLVKQFTNPELCDITERLVFTDPFFDHDTNDFEEELRPFVEKLWNNDSVKIEAAKLKKSFLTSAETLIHGDLHTGSIFASEHETKVIDPEFAFYGPIGFDVGQFIANLFLNALSRDGADREPLYEHVNQVWETFEETFSEAWQKDSLDVYANIDGYLTDTLSHIFEEAIGFAGCELIRRTIGLAHVADLDTIVPFDKRIGRKRLALETGTAFIEKRSEFKTITDVIELFKLLVKE
B9: Rtr1 residues 1-213 (Saccharomyces cerevisiae, UniProt P40084); chain MATIEDIKETALIPFQKHRQLSMHEAEVITLEIIGLLCDSECKDEKTLKYLGRFLTPDMYQDLVDERNLNKRCGYPLCGKSPERIRDPFSMNDTTKKFLLENNPYAYLSHYCSKFHFRCSQFYQVQLSDEALFARTGVHLFEDPEQDKHDIDFKVTLFEELLREKASEEDIKSLISGLKKLGLNPDSGTTEKDDTELEDDLSKWLAQIKIVEN
UniProt P12081, sequence (whole entry, looked up): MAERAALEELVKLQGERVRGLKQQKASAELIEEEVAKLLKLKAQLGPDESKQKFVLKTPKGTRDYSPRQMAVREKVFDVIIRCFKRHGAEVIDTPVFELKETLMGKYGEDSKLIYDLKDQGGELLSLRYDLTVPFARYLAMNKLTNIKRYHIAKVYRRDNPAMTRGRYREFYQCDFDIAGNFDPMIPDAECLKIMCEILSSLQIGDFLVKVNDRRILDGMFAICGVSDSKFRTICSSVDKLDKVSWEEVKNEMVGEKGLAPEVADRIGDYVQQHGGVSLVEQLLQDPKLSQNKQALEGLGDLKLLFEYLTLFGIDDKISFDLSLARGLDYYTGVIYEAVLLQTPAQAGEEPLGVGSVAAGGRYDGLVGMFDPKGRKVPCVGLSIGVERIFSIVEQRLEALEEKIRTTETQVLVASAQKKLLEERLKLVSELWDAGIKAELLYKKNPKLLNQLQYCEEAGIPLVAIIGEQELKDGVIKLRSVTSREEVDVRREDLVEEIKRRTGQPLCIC
UniProt Q29437, sequence (whole entry, looked up): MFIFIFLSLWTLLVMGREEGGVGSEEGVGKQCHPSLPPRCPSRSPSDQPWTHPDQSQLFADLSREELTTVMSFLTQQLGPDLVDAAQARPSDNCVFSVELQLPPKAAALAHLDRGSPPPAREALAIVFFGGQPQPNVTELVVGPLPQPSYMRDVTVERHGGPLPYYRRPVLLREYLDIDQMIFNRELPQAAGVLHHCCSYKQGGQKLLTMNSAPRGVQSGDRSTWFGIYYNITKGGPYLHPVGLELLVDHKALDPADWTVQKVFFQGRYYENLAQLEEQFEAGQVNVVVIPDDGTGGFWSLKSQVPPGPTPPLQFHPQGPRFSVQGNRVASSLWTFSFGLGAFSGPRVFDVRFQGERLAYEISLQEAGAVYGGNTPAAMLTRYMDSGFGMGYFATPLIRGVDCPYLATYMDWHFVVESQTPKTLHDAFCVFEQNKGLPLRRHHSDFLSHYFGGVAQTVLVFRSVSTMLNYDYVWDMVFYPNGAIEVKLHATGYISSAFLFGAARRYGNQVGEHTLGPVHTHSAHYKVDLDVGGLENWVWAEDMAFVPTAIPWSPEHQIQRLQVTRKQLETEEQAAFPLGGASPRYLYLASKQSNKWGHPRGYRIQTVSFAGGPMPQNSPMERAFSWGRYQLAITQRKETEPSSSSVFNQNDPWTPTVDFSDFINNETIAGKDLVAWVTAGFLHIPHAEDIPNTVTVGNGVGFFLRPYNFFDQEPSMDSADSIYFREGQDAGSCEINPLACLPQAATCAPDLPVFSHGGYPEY
UniProt Q04049, sequence (whole entry, looked up): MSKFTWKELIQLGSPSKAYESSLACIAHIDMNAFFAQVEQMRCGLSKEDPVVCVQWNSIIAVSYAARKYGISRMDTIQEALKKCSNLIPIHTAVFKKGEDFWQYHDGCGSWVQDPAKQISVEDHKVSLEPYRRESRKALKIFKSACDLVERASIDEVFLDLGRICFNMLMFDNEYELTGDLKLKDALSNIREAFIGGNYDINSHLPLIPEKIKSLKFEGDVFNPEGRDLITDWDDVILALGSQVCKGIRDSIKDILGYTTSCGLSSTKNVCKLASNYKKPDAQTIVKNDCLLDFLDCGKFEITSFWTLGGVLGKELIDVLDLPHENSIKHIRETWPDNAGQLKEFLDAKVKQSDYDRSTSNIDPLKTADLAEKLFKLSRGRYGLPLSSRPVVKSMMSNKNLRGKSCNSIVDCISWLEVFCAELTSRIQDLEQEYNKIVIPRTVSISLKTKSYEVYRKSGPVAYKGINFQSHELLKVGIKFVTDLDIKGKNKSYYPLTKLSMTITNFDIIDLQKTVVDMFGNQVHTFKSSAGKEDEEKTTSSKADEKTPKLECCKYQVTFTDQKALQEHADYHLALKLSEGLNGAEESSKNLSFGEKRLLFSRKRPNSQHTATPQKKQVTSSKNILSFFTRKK

Molecule | substrate | pH | temperature | notes | together with | kcat/Km
HARS1 (Homo sapiens, UniProt P12081) | N[C@@H](Cc1c[nH]cn1)C(=O)O | pH 7.5 | 37 °C | KCl 150 mM | tRNA(His) | 500000 ± 400000 M⁻¹ s⁻¹
Plasma amine oxidase (Bos taurus, UniProt Q29437) | NCCOc1ccc2cc(CN)ccc2c1 | pH 7.2 | 30 °C | – | – | 200000 M⁻¹ s⁻¹
B1 (protein) | C[C@@H]1O[C@@H](Oc2ccc([N+](=O)[O-])cc2)[C@@H](O)[C@H](O)[C@H]1O | pH 5.5 | 35 °C | – | – | 12200 ± 700 M⁻¹ s⁻¹
B2 (protein P94L) | O[C@H]1CCCc2ccccc21 | pH 7.4 | – | phosphate 400 mM, NADPH 250 µM printed | NADP+, reverse reaction | 36 ± 11 M⁻¹ s⁻¹
B3 (protein) | CC(=O)Oc1ccc2c(C)cc(=O)oc2c1 | pH 6 | 30 °C | – | – | 85500 M⁻¹ s⁻¹
B4 (BaiA2) | C[C@H](CCC(=O)SCCNC(=O)CCNC(=O)[C@H](O)C(C)(C)COP(=O)(O)OP(=O)(O)OC[C@H]1O[C@@H](n2cnc3c(N)ncnc32)[C@H](O)[C@@H]1OP(=O)(O)O)[C@H]1CC[C@H]2[C@@H]3CC[C@@H]4C[C@H](O)CC[C@]4(C)[C@H]3CC[C@]12C | pH 8.7 | 37 °C | – | NAD+ | 10200 M⁻¹ s⁻¹
B5 (protein) | CC(C)C(=O)CC(=O)SCCNC(=O)CCNC(=O)[C@H](O)C(C)(C)COP(=O)(O)OP(=O)(O)OC[C@H]1O[C@@H](n2cnc3c(N)ncnc32)[C@H](O)[C@@H]1OP(=O)(O)O | pH 7.8 | 30 °C | NaCl 150 mM | methylmalonyl-CoA 1.0 mM | 17800 M⁻¹ s⁻¹
B6 (MMP2) | CC(=O)NCC(=O)N1CCC[C@H]1C(=O)N[C@@H](CC(C)C)C(=O)NCC(=O)N[C@@H](CC(C)C)C(=O)N[C@@H](CO)C(=O)N[C@@H](CC(C)C)C(=O)NCC(=O)N[C@@H](CCCCN)C(N)=O | – | – | – | – | 98000 M⁻¹ s⁻¹
RAD30 (Saccharomyces cerevisiae, UniProt Q04049) | Nc1nc2c(ncn2[C@H]2C[C@H](O)[C@@H](COP(=O)(O)OP(=O)(O)OP(=O)(O)O)O2)c(=O)[nH]1 | pH 7.5 | – | apparent Km, opposite dT, undamaged template, apparent | MgCl2 10 mM | 23.3 M⁻¹ s⁻¹
α-amino ester hydrolase (Xanthomonas campestris, UniProt Q8P8K4) | CC1=C(C(=O)O)N2C(=O)[C@@H](NC(=O)[C@H](N)c3ccccc3)[C@H]2SC1 | pH 7 | 25 °C | phosphate 100 mM | – | 95000 M⁻¹ s⁻¹
HARS1 (Homo sapiens, UniProt P12081) | Nc1ncnc2c1ncn2[C@@H]1O[C@H](COP(=O)(O)OP(=O)(O)OP(=O)(O)O)[C@@H](O)[C@H]1O | pH 7.5 | – | – | histidine, tRNAHis 5 µM, MgCl2 10 mM, KCl 150 mM | 130000 M⁻¹ s⁻¹
PGDH1 (Amborella trichopoda, UniProt U5D351) | O=C(O)[C@H](O)COP(=O)(O)O | pH 9 | 25 °C | NaCl 0.1 M, apparent | NAD+ | 25100 ± 2200 M⁻¹ s⁻¹
enzyme (Bifidobacterium adolescentis, UniProt A1A3M6) | O=[N+]([O-])c1ccc(O[C@H]2OC[C@H](O)[C@H](O)[C@H]2O)cc1 | pH 5 | 40 °C | – | – | 54900 M⁻¹ s⁻¹
B7 (protein) | NC(=O)C1=CN([C@@H]2O[C@H](COP(=O)(O)OP(=O)(O)OC[C@H]3O[C@@H](n4cnc5c(N)ncnc54)[C@H](OP(=O)(O)O)[C@@H]3O)[C@@H](O)[C@H]2O)C=CC1 | pH 7.5 | 25 °C | NaCl 150 mM, cofactor varied | hydroxypyruvate 66.7 mM | 371000 ± 59000 M⁻¹ s⁻¹
B8 (mtnK) | Nc1ncnc2c1ncn2[C@@H]1O[C@H](COP(=O)(O)OP(=O)(O)OP(=O)(O)O)[C@@H](O)[C@H]1O | pH 7.8 | 30 °C | – | 5-methylthioribose | 21000 M⁻¹ s⁻¹
B9 (Rtr1 residues 1-213) | Cc1cc(=O)oc2c(F)c(OP(=O)(O)O)c(F)cc12 | pH 6 | – | NaCl 150 mM, no metal added | – | 1.83e+07 M⁻¹ s⁻¹

Repeated from above:
Molecule | substrate | pH | temperature | notes | together with | kcat/Km
B2 (protein P94L) | O[C@H]1CCCc2ccccc21 | pH 7.4 | – | phosphate 400 mM, NADPH 250 µM printed | NADP+, reverse reaction | 36 ± 11 M⁻¹ s⁻¹
HARS1 (Homo sapiens, UniProt P12081) | Nc1ncnc2c1ncn2[C@@H]1O[C@H](COP(=O)(O)OP(=O)(O)OP(=O)(O)O)[C@@H](O)[C@H]1O | pH 7.5 | – | – | histidine, tRNAHis 5 µM, MgCl2 10 mM, KCl 150 mM | 130000 M⁻¹ s⁻¹
